{"data": "Measurements of several laboratories", "note": "A part holds a random share of what one study measured.", "chain of UniProt P09619 (whole entry, looked up)": "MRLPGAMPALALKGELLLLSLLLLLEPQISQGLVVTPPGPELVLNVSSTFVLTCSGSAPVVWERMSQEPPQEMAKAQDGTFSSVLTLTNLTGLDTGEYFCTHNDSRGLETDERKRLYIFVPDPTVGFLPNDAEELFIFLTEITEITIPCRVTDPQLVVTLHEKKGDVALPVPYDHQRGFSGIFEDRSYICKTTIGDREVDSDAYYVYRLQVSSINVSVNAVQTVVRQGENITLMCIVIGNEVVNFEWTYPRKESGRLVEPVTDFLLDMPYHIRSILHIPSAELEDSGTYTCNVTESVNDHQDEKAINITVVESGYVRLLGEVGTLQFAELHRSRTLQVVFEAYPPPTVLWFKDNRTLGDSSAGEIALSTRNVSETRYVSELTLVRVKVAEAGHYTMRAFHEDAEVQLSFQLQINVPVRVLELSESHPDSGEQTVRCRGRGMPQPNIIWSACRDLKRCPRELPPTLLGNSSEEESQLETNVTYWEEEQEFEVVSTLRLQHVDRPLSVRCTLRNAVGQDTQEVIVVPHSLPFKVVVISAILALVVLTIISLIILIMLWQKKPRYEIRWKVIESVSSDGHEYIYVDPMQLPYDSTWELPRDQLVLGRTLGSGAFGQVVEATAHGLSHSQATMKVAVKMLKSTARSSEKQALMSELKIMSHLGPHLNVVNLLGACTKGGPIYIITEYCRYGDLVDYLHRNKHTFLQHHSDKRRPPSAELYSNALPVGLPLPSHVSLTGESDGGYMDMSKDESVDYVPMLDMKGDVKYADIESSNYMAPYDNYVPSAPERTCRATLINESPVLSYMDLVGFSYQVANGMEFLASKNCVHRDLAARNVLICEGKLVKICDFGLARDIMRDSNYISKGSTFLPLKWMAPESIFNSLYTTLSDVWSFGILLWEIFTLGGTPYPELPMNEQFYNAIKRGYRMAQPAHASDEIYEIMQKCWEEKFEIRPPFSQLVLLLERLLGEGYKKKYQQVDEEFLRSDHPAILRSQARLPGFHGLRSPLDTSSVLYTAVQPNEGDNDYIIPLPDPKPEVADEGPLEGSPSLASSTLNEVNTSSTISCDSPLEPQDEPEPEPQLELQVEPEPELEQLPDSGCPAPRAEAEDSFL", "chain of UniProt P29323 (whole entry, looked up)": "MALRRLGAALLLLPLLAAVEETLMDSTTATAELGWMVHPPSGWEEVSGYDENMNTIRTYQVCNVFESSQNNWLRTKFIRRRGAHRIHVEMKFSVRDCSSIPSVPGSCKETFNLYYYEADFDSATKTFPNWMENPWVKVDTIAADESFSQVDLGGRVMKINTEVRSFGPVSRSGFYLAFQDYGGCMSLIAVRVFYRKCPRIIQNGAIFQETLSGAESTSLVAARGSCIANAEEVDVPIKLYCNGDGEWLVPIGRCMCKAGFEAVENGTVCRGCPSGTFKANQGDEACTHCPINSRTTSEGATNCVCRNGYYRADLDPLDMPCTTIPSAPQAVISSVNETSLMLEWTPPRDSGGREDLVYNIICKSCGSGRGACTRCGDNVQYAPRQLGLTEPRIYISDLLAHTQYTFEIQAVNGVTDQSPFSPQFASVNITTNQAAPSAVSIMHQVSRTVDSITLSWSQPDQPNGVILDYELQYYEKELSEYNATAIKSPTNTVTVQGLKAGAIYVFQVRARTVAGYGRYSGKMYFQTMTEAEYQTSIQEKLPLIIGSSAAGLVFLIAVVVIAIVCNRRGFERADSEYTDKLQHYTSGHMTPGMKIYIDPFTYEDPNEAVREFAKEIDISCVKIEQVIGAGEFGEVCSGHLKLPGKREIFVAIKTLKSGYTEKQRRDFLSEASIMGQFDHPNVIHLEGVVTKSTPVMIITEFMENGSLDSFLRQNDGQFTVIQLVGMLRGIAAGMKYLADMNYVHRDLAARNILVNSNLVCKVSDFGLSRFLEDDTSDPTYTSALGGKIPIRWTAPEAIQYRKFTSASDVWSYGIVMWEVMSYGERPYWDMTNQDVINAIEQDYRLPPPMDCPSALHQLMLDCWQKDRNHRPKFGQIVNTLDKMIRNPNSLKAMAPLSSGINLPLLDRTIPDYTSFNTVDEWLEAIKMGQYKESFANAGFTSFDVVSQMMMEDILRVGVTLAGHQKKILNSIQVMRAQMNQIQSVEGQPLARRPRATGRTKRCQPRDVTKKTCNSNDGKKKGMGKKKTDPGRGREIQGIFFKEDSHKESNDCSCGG", "chain of UniProt Q8NEB9 (whole entry, looked up)": "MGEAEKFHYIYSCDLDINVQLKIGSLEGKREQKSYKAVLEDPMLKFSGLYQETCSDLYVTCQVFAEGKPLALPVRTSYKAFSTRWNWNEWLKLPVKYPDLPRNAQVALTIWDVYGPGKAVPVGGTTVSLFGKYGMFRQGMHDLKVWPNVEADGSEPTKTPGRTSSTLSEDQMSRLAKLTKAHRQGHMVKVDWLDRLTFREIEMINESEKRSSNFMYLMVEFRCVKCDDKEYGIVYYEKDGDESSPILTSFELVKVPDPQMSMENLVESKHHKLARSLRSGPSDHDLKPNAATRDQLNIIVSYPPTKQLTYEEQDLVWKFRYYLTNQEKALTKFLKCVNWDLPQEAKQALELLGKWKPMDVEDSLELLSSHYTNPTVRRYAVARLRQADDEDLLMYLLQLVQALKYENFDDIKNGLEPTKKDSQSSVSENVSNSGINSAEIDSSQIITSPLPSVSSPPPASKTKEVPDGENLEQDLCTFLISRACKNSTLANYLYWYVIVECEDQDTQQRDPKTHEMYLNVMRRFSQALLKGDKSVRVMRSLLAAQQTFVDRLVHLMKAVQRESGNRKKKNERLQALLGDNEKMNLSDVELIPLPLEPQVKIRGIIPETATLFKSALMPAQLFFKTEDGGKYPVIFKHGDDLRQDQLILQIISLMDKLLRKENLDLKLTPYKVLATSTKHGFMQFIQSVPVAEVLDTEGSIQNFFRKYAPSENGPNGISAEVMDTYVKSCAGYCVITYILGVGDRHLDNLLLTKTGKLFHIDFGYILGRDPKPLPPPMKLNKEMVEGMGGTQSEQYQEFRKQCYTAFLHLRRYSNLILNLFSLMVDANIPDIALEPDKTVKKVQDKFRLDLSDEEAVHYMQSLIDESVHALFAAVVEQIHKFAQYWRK", "chain of UniProt Q96Q40 (whole entry, looked up)": "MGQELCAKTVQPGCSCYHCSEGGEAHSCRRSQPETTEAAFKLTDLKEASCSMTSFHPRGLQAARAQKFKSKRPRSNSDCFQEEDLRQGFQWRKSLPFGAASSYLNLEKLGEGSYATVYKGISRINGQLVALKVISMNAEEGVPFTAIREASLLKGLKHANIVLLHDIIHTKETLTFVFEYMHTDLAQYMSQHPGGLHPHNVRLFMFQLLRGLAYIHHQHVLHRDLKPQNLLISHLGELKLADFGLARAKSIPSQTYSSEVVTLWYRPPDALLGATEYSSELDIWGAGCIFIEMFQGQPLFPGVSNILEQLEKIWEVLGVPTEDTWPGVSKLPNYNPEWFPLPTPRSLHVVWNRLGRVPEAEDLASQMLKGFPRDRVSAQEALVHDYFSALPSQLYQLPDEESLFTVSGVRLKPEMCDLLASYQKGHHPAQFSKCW", "chain of UniProt Q16513 (whole entry, looked up)": "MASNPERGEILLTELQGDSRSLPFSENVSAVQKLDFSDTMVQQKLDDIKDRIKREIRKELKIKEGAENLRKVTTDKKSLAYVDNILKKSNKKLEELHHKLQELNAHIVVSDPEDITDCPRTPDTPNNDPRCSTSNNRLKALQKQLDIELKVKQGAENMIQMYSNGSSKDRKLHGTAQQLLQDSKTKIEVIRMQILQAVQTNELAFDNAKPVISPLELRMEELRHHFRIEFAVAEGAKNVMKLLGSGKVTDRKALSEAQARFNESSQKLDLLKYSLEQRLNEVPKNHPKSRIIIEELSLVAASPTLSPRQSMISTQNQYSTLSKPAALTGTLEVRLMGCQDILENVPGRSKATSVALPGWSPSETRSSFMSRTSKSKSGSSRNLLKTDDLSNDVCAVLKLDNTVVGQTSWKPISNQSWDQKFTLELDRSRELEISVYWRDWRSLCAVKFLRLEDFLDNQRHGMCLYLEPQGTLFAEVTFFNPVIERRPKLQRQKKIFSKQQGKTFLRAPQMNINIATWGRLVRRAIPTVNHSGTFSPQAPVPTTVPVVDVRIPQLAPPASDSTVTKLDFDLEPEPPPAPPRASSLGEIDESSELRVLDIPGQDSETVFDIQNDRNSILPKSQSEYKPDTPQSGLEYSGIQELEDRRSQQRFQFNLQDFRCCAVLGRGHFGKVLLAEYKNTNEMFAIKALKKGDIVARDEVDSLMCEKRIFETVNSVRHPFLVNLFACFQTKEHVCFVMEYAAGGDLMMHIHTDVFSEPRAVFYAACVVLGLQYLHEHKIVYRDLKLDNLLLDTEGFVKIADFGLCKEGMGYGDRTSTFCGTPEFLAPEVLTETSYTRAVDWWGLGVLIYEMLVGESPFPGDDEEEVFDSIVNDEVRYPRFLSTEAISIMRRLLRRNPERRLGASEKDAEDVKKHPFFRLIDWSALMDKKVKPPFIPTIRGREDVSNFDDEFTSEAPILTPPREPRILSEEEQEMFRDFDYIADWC"}
{"data": "Study 1", "organism": "Sarcocystis neurona", "effect on": "parasite activity", "concentration": "10 µM", "time": "96 h"}
{"Compound": "Cc1c(OCC(F)(F)F)ccnc1C[S+]([O-])c1nc2ccccc2[nH]1 (stereo not drawn)", "activity class": "inactive"}
{"Compound": "CO[C@H]1O[C@@H]2O[C@@]3(C)CC[C@H]4[C@H](C)CC[C@@H]([C@H]1C)[C@@]24OO3", "activity class": "inactive"}
{"Compound": "Cc1ccsc1C(=CCCN1CCC[C@@H](C(=O)O)C1)c1sccc1C", "activity class": "inactive"}
{"Compound": "O=C1CN(/N=C/c2ccc(-c3ccc([N+](=O)[O-])cc3)o2)C(O)=N1", "activity class": "active"}
{"Compound": "CCOC(=O)C1=C(C)NC(C)=C(C(=O)OC)C1c1cccc([N+](=O)[O-])c1 (stereo not drawn)", "activity class": "inactive"}
{"Compound": "OCCN1C[C@H](O)[C@@H](O)[C@H](O)[C@H]1CO", "activity class": "inactive"}
{"Compound": "CC(C)NCC(O)COc1cccc2[nH]ccc12 (stereo not drawn)", "activity class": "inactive"}
{"Compound": "C[C@H]1O[C@H](O[C@H]2[C@H](O)[C@@H](O)[C@@H](O[C@H]3[C@H](O)[C@@H](O)C(O)O[C@@H]3CO)O[C@@H]2CO)[C@H](O)[C@@H](O)[C@@H]1N[C@H]1C=C(CO)[C@@H](O)[C@H](O)[C@H]1O (stereo partly drawn)", "activity class": "inactive"}
{"data": "Study 2", "species": "human", "sample": "microsomes or S9", "concentration": "2 µM", "time": "0.5 h"}
{"Structure (SMILES)": "CC(C)C(C)NC(=O)N(C)CC(C)(C)CN1CCOCC1 (stereo not drawn)", "remaining compound [%]": 46.2}
{"Structure (SMILES)": "O=C1Nc2ccccc2Oc2cc(Oc3cccc4cccnc34)c(S(=O)(=O)N3CCOCC3)cc21", "remaining compound [%]": 7.74}
{"Structure (SMILES)": "O=C(O)c1cccc(NC(=O)c2cc(S(=O)(=O)Nc3ccc(Br)cc3)ccc2Cl)c1", "remaining compound [%]": 79.4}
{"Structure (SMILES)": "O=S(=O)(c1ccc(Cl)s1)N1CCNCC1", "remaining compound [%]": 99.2}
{"Structure (SMILES)": "CC(C)(CO)NCc1ccc(-c2cc(Cl)cc(Cl)c2)o1", "remaining compound [%]": 69.8}
{"Structure (SMILES)": "CC(C)(C)C1CCc2onc(C(=O)NCCCOc3ccccc3F)c2C1 (stereo not drawn)", "remaining compound [%]": 95}
{"Structure (SMILES)": "COc1cc(OC)cc(N2CCC(N(C)C(=O)Cc3c(N)nc(C)[nH]c3=O)C2)c1 (stereo not drawn)", "remaining compound [%]": 79.8}
{"Structure (SMILES)": "CC(C)Oc1ccccc1NS(=O)(=O)c1cccc(S(=O)(=O)C2CCS(=O)(=O)C2)c1 (stereo not drawn)", "remaining compound [%]": 27.4}
{"Structure (SMILES)": "Cc1cc(C)cc(N(C)S(=O)(=O)c2cn(C)c(=O)[nH]c2=O)c1", "remaining compound [%]": 90.9}
{"Structure (SMILES)": "CN1CCN(c2ccc3[nH]c(-c4ccc5[nH]c(-c6ccc(O)cc6)nc5c4)nc3c2)CC1", "remaining compound [%]": 49.8}
{"data": "Study 3", "target": "Calcium/calmodulin-dependent protein kinase type II subunit alpha (CAMK2A, Homo sapiens, UniProt Q9UQM7)", "effect on": "enzyme activity", "mode": "inhibitor", "concentration": "10 µM", "chain of UniProt Q9UQM7 (whole entry, looked up)": "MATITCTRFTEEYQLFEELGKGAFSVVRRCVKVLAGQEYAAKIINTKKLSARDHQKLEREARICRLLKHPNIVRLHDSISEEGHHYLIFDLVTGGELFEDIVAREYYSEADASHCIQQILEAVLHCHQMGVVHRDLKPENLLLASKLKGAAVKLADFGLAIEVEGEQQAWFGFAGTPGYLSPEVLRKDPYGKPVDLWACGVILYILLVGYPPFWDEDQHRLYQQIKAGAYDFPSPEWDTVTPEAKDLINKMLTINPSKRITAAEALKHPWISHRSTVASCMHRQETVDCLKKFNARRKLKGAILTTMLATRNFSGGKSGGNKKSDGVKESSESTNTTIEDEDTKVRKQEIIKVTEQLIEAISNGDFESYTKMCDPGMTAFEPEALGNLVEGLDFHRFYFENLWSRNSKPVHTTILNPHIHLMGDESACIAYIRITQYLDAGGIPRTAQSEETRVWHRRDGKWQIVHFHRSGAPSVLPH"}
{"SMILES": "C=C(C)[C@H](CC=C(C)C)Cc1c(O)cc(OC)c2c1O[C@H](c1ccc(O)cc1O)CC2=O", "inhibition": "-19%"}
{"SMILES": "C/C=C(/C)C(=O)O[C@H]1[C@@H](OC(C)=O)c2c(ccc3ccc(=O)oc23)OC1(C)C (racemic)", "inhibition": "0.17%"}
{"SMILES": "CC(C)(O)CCc1c(O)cc(O)c2c(=O)c(O)c(-c3ccc(O)cc3)oc12", "inhibition": "-8%"}
{"SMILES": "Cc1onc(-c2c(Cl)cccc2Cl)c1C(=O)N[C@@H]1C(=O)N2[C@@H]1SC(C)(C)[C@@H]2C(=O)O", "inhibition": "-11%"}
{"SMILES": "N#Cc1ccc2c(c1)N(CCCN1CCC(O)CC1)c1ccccc1S2", "inhibition": "-10%"}
{"SMILES": "CC(=O)Oc1ccccc1", "inhibition": "-30%"}
{"SMILES": "CS(=O)(=O)c1ccc(C(=O)Nc2ccc(Cl)c(-c3ccccn3)c2)c(Cl)c1", "inhibition": "-14%"}
{"SMILES": "C[C@H]1CC[C@@]2(OC1)O[C@H]1C[C@H]3[C@@H]4CC[C@@H]5C[C@@H](O)CC[C@]5(C)[C@H]4CC[C@]3(C)[C@H]1[C@@H]2C", "inhibition": "-15%"}
{"data": "Study 4", "SMILES": "COc1cc(-c2cn(C3CCc4c(F)cccc4N(CC(F)(F)F)C3=O)nn2)ccc1-n1cnc(C)c1 (stereo not drawn)", "concentration": "1 µM"}
{"target": "MAPKAPK5 (Homo sapiens, UniProt Q8IW41)", "effect on": "cell-free assay", "technique": "competition with immobilised ligand", "remaining binding [%]": 100}
{"target": "TEC (Homo sapiens, UniProt P42680)", "effect on": "cell-free assay", "technique": "competition with immobilised ligand", "remaining binding [%]": 100}
{"target": "PKN2 (Homo sapiens, UniProt Q16513)", "effect on": "cell-free assay", "technique": "competition with immobilised ligand", "remaining binding [%]": 100}
{"target": "CAMK4 (Homo sapiens, UniProt Q16566)", "effect on": "cell-free assay", "technique": "competition with immobilised ligand", "remaining binding [%]": 100}
{"target": "STK32A (Homo sapiens, UniProt Q8WU08)", "effect on": "cell-free assay", "technique": "competition with immobilised ligand", "remaining binding [%]": 100}
{"target": "PDGFRB (Homo sapiens, UniProt P09619)", "effect on": "cell-free assay", "technique": "competition with immobilised ligand", "remaining binding [%]": 100}
{"target": "PIK3C3 (Homo sapiens, UniProt Q8NEB9)", "effect on": "cell-free assay", "technique": "competition with immobilised ligand", "remaining binding [%]": 100}
{"target": "DAPK3 (Homo sapiens, UniProt O43293)", "effect on": "cell-free assay", "technique": "competition with immobilised ligand", "remaining binding [%]": 100}
{"target": "CDK15 (Homo sapiens, UniProt Q96Q40)", "effect on": "cell-free assay", "technique": "competition with immobilised ligand", "remaining binding [%]": 100}
{"target": "FLT3 (Homo sapiens, UniProt P36888, K663Q)", "effect on": "cell-free assay", "technique": "competition with immobilised ligand", "remaining binding [%]": 92}
{"target": "Tyrosine-protein kinase JAK3, JH1 (JAK3, Homo sapiens, UniProt P52333)", "effect on": "cell-free assay", "technique": "competition with immobilised ligand", "remaining binding [%]": 100}
{"target": "CDK14 (Homo sapiens, UniProt O94921)", "effect on": "cell-free assay", "technique": "competition with immobilised ligand", "remaining binding [%]": 100}
{"target": "SGK2 (Homo sapiens, UniProt Q9HBY8)", "effect on": "cell-free assay", "technique": "competition with immobilised ligand", "remaining binding [%]": 95}
{"target": "BLK (Homo sapiens, UniProt P51451)", "effect on": "cell-free assay", "technique": "competition with immobilised ligand", "remaining binding [%]": 100}
{"target": "LTK (Homo sapiens, UniProt P29376)", "effect on": "cell-free assay", "technique": "competition with immobilised ligand", "remaining binding [%]": 100}
{"target": "DSTYK (Homo sapiens, UniProt Q6XUX3)", "effect on": "cell-free assay", "technique": "competition with immobilised ligand", "remaining binding [%]": 100}
{"target": "SIK1 (Homo sapiens, UniProt P57059)", "technique": "competition binding", "remaining binding [%]": 100}
{"target": "CDK2 (Homo sapiens, UniProt P24941)", "effect on": "cell-free assay", "technique": "competition with immobilised ligand", "remaining binding [%]": 100}
{"target": "CILK1 (Homo sapiens, UniProt Q9UPZ9)", "effect on": "cell-free assay", "technique": "competition with immobilised ligand", "remaining binding [%]": 65}
{"target": "EPHA1 (Homo sapiens, UniProt P21709)", "effect on": "cell-free assay", "technique": "competition with immobilised ligand", "remaining binding [%]": 100}
{"target": "TNNI3K (Homo sapiens, UniProt Q59H18)", "effect on": "cell-free assay", "technique": "competition with immobilised ligand", "remaining binding [%]": 100}
{"target": "STK39 (Homo sapiens, UniProt Q9UEW8)", "effect on": "cell-free assay", "technique": "competition with immobilised ligand", "remaining binding [%]": 100}
{"target": "Myosin-IIIb (MYO3B, Homo sapiens, UniProt Q8WXR4)", "effect on": "binding", "technique": "competition with immobilised ligand", "remaining binding [%]": 100}
{"target": "PRKX (Homo sapiens, UniProt P51817)", "effect on": "cell-free assay", "technique": "competition with immobilised ligand", "remaining binding [%]": 100}
{"target": "EPHB2 (Homo sapiens, UniProt P29323)", "effect on": "cell-free assay", "technique": "competition with immobilised ligand", "remaining binding [%]": 100}
{"note": "Repeated from above (study 4):"}
{"target": "CDK14 (Homo sapiens, UniProt O94921)", "effect on": "cell-free assay", "technique": "competition with immobilised ligand", "remaining binding [%]": 100}
{"target": "CDK2 (Homo sapiens, UniProt P24941)", "effect on": "cell-free assay", "technique": "competition with immobilised ligand", "remaining binding [%]": 100}
{"target": "CAMK4 (Homo sapiens, UniProt Q16566)", "effect on": "cell-free assay", "technique": "competition with immobilised ligand", "remaining binding [%]": 100}
{"target": "STK39 (Homo sapiens, UniProt Q9UEW8)", "effect on": "cell-free assay", "technique": "competition with immobilised ligand", "remaining binding [%]": 100}
